Assay results of several laboratories.
Compare with care: the assays were run in different laboratories. Numbers after ± are the reported error.

[64Cu+2].c1cnc(CNCc2ccc(CN3CCCN4CCNCCCN(CC4)CC3)cc2)nc1 — tissue uptake (CXCR4; NOD/SCID mouse, U87 and U87-stb-CXCR4 xenografts, liver; iv, 120 min, ex vivo): 91 ± 16.8 %ID/g
CCCCCCCCCCCCCC(=O)Nc1ccccc1SSc1ccccc1NC(=O)CCCCCCCCCCCCC — viability (HaCaT; cell growth or viability, MTT; 5 mg/mL, 24 h): 100%
COc1cc(O)c(-c2c(O)cc(OC)c3c2ccc2cc(O)ccc23)c2ccc3ccccc3c12 — viability (BV-2; cell growth or viability, MTT; 20 µM, 24 h): 96.4%
N#CCc1cccc(Cl)c1-c1ccc2[nH][11c](=O)[nH]c2c1 — brain-to-blood ratio increase (P-glycoprotein and Bcrp; ex vivo brain uptake; mouse; injection, 30 min, together with: tariquidar; relative to: without tariquidar): 206%
CCCCCCCCCCCC(=O)Nc1ccccc1SSc1ccccc1NC(=O)CCCCCCCCCCC — viability (HaCaT; cell growth or viability, MTT; 2.5 mg/mL, 24 h): 92.1%
Cc1cc(CCC(=O)OCC(C)(C)C2OCC3(CO2)COC(C(C)(C)COC(=O)CCc2cc(C)c(O)c(C(C)(C)C)c2)OC3)cc(C(C)(C)C)c1O (centres unmarked) — concentration in mucosal solution (Cyprinus carpio; everted gut sac; intestine; concentration not given, 24 h, 23 °C): 25.9 ± 1.8 µg/mL
COc1cc(O)cc2c1-c1ccc(O)c(OC)c1CC2 — viability (BV-2; cell growth or viability, MTT; 40 µM, 24 h): 94.3%
[64Cu+2].c1ccc(CNCc2ccc(CN3CCCN4CCNCCCN(CC4)CC3)cc2)nc1 — tissue uptake (CXCR4; NOD/SCID mouse, U87 and U87-stb-CXCR4 xenografts, blood; iv, 480 min, ex vivo): 1.82 ± 0.26 %ID/g
NC(=S)N/N=C/c1ccccn1 — log stability constant (Cu2+ complex; potentiometric titration; 25 °C): 19.9
CC(=O)N[C@H](C(=O)N[C@H](C(=O)N[C@@H](CCCNC(=N)N)C(=O)N1Cc2ccccc2C[C@H]1C(=O)N[C@@H](Cc1ccccc1)C(N)=O)C1CCCCC1)C(C)C — cytokine level (human PBMC; Bio-Plex multiplex, measured: IL-2; 250 µg/mL, 24 h): 6.9 ± 3.3 pg/mL
C=CC(=O)Oc1c(C(C)c2cc(C(C)(C)CC)cc(C(C)(C)CC)c2O)cc(C(C)(C)CC)cc1C(C)(C)CC (centres unmarked) — concentration in mucosal solution (Cyprinus carpio; everted gut sac; intestine; concentration not given, 24 h, 23 °C): 85.8 ± 4.2 µg/mL
O=C(O)[C@@H]1C[C@@H](O)CN1C(=O)[C@@H]1CCCN1 — −ΔG (iron(III) ion; complex formation, from log β; aqueous 0.15 M NaCl; 25 °C, MA2 complex species): 32.4 kcal/mol
O=C(O)CCC(NP(=O)(O)OCCC[C@@H](NC(=O)CC[C@H](NC(=O)CCCCCNC(=O)c1ccc([18F])cc1)C(=O)O)C(=O)O)C(=O)O (some centres unmarked) — tracer uptake (CWR22Rv1 tumour model; host not given, blood; 4 h, tumour-bearing): 0.011 %ID/g
Nc1ccccc1C(=O)NS(=O)(=O)NC[C@H]1O[C@@H](n2cnc3c(N)ncnc32)[C@H](O)[C@@H]1O — intracellular concentration (Pseudomonas aeruginosa; LC-MS/MS of lysate; PA14, LB medium; 1000 µM, 30 min, OD600 0.5): 20 to 30 µM

A few entries again:
O=C(O)CCC(NP(=O)(O)OCCC[C@@H](NC(=O)CC[C@H](NC(=O)CCCCCNC(=O)c1ccc([18F])cc1)C(=O)O)C(=O)O)C(=O)O (some centres unmarked) — tracer uptake (CWR22Rv1 tumour model; host not given, blood; 4 h, tumour-bearing): 0.011 %ID/g
CCCCCCCCCCCCCC(=O)Nc1ccccc1SSc1ccccc1NC(=O)CCCCCCCCCCCCC — viability (HaCaT; cell growth or viability, MTT; 5 mg/mL, 24 h): 100%
